Published values of several laboratories.
Protocols differ between the studies behind these lines. “And” joins repeats or separate records; there may be more than shown. ± gives the spread as reported.
SLC6A3: Sodium-dependent dopamine transporter (SLC6A3, Homo sapiens, UniProt Q01959)
UniProt Q01959, sequence (whole entry, unmodified, looked up): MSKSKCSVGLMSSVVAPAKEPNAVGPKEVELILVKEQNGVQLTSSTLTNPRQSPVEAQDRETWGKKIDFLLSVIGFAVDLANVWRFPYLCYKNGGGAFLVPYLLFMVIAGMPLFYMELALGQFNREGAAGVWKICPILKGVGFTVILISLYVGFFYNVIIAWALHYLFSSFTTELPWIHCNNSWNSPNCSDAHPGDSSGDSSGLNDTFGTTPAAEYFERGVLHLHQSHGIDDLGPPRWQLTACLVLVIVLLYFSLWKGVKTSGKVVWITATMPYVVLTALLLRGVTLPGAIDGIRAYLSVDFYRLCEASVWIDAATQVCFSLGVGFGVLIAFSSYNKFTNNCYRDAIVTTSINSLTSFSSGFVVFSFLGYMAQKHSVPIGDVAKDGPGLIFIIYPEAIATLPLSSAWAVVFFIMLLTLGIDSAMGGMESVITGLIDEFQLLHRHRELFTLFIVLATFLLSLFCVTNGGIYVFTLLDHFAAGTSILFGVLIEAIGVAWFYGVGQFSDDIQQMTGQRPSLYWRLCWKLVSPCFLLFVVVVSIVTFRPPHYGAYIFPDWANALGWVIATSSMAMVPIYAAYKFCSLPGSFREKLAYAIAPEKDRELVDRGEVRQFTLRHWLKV

Structure (SMILES)	target	assay	test system	setting	how to read	endpoint	value
CCCC(C(=O)c1ccc2c(c1)OCO2)N1CCCC1 (stereo not shown)	SLC6A3	dopamine-induced inward current, inhibitor, two-electrode voltage clamp	Xenopus oocytes expressing hDAT	10 µM, holding potential -60 mV, together with: dopamine 5 µM		time to steady-state inhibition	15 s
C[C@H](C(=O)N[C@H]1COc2ccccc2[C@@H]1S(C)(=O)=O)c1ccc(F)cc1	SLC6A3	binding		10 µM, Eurofins selectivity panel		inhibition	21%
CN[C@]1(c2ccccc2Cl)CCCCC1=O	SLC6A3	radioligand binding, antagonist, radioligand displacement		30 µM		inhibition	35%
COC(=O)C(c1ccccc1)C1CCCCN1 (stereo not shown)	SLC6A3	transporter current, inhibitor		together with: dopamine 30 µM		maximal inhibition rate (kapp)	2.2 s⁻¹
c1ccc2cc([C@]34CNC[C@H]3C4)ccc2c1	SLC6A3 (Homo sapiens, UniProt Q01959, F326A)	inhibitor, [3H]dopamine uptake		100 nM, F326A mutant	reference: no inhibitor	dopamine uptake	107% and 66.6% and 102%
Cn1cccc1-c1cccnc1	SLC6A3	binding		50 µM		inhibition	-5.88%
COC(=O)[C@H]1[C@@H](OC(=O)c2ccccc2)C[C@@H]2CC[C@H]1N2C	SLC6A3	endogenous leak current, inhibitor, two-electrode voltage clamp	Xenopus oocytes expressing hDAT	0.01 to 30 µM, -60 mV	reference: dopamine pre-pulse peak current	remaining current	24.6 ± 0.5%
CCC(CNc1nc(-c2cn3ccnc3cc2C)nc2ccccc12)c1ccccc1 (stereo not shown)	SLC6A3	[3H]WIN35,428 binding	CHO-K1, transfected	10 µM		inhibition	66.7 ± 8.1%
C[C@H]1COCCN1c1nc(NCc2cccnc2C(F)(F)F)c2cccnc2n1	SLC6A3	binding		CEREP panel		IC50	> 100 µM
CCC[C@@H](C(=O)c1ccc(C)cc1)N1CCCC1	SLC6A3	transporter current, inhibitor		together with: dopamine 30 µM		maximal inhibition rate (kapp)	2.38 s⁻¹
CC(C)CC(=O)OC[C@H]1O[C@@](C#N)(c2ccc3c(N)ncnn23)[C@H](O)[C@@H]1O	SLC6A3			20 µM		inhibition	20%
CCCC(C(=O)c1ccc2c(c1)OCO2)N1CCCC1 (stereo not shown)	SLC6A3	transporter current, inhibitor, electrophysiology	human DAT-expressing cells	current recovery, together with: dopamine 30 µM		koff	0.029 s⁻¹
CCN(CC)CCCC[C@H](NC(=O)[C@H](CC(C)C)NC(=O)[C@H](C)NC(=O)[C@H](Cc1ccccc1)NC(=O)c1ccc(C(C)(C)C)cc1)C(=O)N[C@@H](CO)C(=O)OC	SLC6A3	antagonist, radioligand binding		10 µM	reference: control binding	specific binding	92.7%

Excerpt of the above:
Structure (SMILES)	target	assay	test system	setting	how to read	endpoint	value
COC(=O)C(c1ccccc1)C1CCCCN1 (stereo not shown)	SLC6A3	transporter current, inhibitor		together with: dopamine 30 µM		maximal inhibition rate (kapp)	2.2 s⁻¹
